# Experimental data gathered from unrelated publications.
# Each numbered part is a random draw from the data of one study; scales do not carry over between parts. Positions count from the first letter of the parent shown.

# Study 1 — method: RNA Bind-n-Seq; form: RNA; matrix: in vitro; tested at: 200 nM; notes: whole 134-nt RNA, ends assumed; together with: 150 mM KCl; reference: input library; reading: higher = stronger binding
# Target: Ras GTPase-activating protein-binding protein 1, full length (G3BP1, Homo sapiens, UniProt Q13283)
# Chain of UniProt Q13283 (whole entry, looked up): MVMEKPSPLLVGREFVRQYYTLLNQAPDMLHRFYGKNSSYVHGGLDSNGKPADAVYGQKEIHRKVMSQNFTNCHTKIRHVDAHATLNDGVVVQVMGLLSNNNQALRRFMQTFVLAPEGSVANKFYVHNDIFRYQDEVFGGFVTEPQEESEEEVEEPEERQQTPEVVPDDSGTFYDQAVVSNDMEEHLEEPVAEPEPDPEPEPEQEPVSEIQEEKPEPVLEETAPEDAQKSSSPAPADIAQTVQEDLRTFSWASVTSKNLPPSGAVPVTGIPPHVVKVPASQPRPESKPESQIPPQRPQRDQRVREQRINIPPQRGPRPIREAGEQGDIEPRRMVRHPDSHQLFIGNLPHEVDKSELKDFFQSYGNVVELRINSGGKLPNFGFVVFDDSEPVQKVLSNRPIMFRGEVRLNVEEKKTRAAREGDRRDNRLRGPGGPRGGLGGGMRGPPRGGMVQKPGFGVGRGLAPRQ
# Shared flanks, not repeated: GGGAGUUCUACAGUCCGACGAUC … UGGAAUUCUCGGGUGUCAAGG
Oligonucleotide,log2 enrichment
UGACCUGCACGGACAUCAACACCCUGACAAGGCAGAAGGAACUUCUCCUGCAGAAGCUGAGCACAUUUGAGGAGACCAACCGCACCCUCC,0.962
UCAAGUCCUGUGCUACACAUCGUAUGUACCGAAUCGGUUUGGUUUGGUUUUUGGAAAGUAUUAUGUUACGCCGUUCGGAUCUGCACUUCC,-0.717
CAAGUCCUGUGCUACACAUCGUAUGUACCGAAUCGGGGUUUGGUUUGGGUUUGGGGAAAGUAUUAUGUUACGCCGUUCGGAUCUGCACUU,-0.0208
UCCUCAAGUCCUGUGCUACACAUCGUAUGUACCGAAUCGGAGGUUUGGAGGAAAGUAUUAUGUUACGCCGUUCGGAUCUGCACUUCCAGC,-0.704
AAAUAUCAGUGAUCAUCGCAAGGAAGGAGGCAGACAAGAGUAAGGCACACCUGACUCUUAGGACUAGCAGUCAGAACCAGGAGGAAAGGU,-0.179
UGUGACAGGAGAGCGCUUGAAGAGCAAUGUGACGAGGACCAUCAGACACCGAGGGAUGGAGAGACAUCCCACAGGGCCCAGAUUCAGCAG,0.218
UGUUGCCGUGUGUCUCACCCUACCAUUUCAGAAAAAUGUUCGUUGGUGGCCUGAGCUGGGAUACUAGCAAAAAAGAUUUAAAAGACUAUU,-2.09
UUCCUUCCACGACCCCUGAAGAGCAGCGGUGGGUCUGAGCAUCCUAUCUCCAGGAAGCAGGCCAGCAGGCAAGCCAGCUGCCACCUCGUC,0.0608
AGUCCUGUGCUACACAUCGUAUGUACCGAAUCGGGAAAAAGGGAGGGAAAAAAAGGGAAAGUAUUAUGUUACGCCGUUCGGAUCUGCACU,-0.114

# Study 2 — target: CCNF, cyclin fold, Cln2 fusion (human); method: yeast growth competition, sequencing; matrix: yeast; notes: strong parent motif; reference: not given; reading: higher = stronger binding
# Starting sequence: CDC6 docking peptide (human); TLKGRRLVFDNQL
Variant,normalised enrichment score
Q12M,8.76
R5N,0.477
Q12A,9.3
F9G,0.283
V8P,1.65
F9P,0.854
L13H,7.57
D10I,7.99
K3Y,8.23

# Study 3 — method: DHFR PCA, deep sequencing; matrix: yeast; together with: (+)-ABA 4.8 µM; reference: wild-type fitted maximum; reading: higher = stronger binding
# Target: ABI1, truncated, D143A, DHFR fusion (Arabidopsis thaliana)
# Notes: methotrexate growth selection, single substitutions
# Starting sequence: PYL1, truncated, DHFR fusion (Arabidopsis thaliana); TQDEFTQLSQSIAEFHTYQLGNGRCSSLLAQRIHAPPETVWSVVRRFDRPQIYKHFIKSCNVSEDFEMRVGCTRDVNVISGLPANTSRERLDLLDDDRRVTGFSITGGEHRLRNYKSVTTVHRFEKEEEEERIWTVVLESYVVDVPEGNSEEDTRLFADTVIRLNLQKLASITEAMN; partner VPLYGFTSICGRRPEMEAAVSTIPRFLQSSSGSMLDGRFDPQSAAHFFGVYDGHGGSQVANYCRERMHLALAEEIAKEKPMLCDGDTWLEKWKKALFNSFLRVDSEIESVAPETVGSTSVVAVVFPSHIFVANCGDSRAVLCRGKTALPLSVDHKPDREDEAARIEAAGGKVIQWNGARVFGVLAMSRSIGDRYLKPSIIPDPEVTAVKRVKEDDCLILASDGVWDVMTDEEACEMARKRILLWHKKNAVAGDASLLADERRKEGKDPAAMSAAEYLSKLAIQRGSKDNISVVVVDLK
Variant,relative binding score [%]
V78P,4.09
S63K,68.3
E131L,71.5
R74V,-6.54
K54W,3.29
V145L,25.3

# Other studies, line by line
Molecule,target,assay,system,conditions,scale,endpoint,value
"PhoQ, residues 284 288 289 292 302 303 AEGLLW","PhoP, residues 12 14 15 18 19 TPWLV (Escherichia coli, UniProt P23836)","Sort-seq, refers to: YFP reporter",E. coli,"PhoQ-PhoP variant library, together with: 10 µM Mg2+","reference: high Mg2+ state, higher = stronger signaling",fold induction,1.43

# For quick reference, copied from above (study 2):
Variant,normalised enrichment score
D10I,7.99
F9P,0.854
L13H,7.57
